Measurements of several laboratories.
Every numbered part comes from another study and shows a few of its results, in no order.

Block 1
Target: Histone acetyltransferase KAT6A, both winged helices, GST fusion (KAT6A, Homo sapiens, UniProt Q92794, residues 1-181)
Technique: protein binding microarray
Molecule type: double-stranded DNA, one strand shown
Matrix: in vitro
Concentration: not given
Notes: 8-mer, flanks averaged, mean of 2 arrays, mostly near background
Baseline: not given
Direction: higher = stronger binding
Construct (chain): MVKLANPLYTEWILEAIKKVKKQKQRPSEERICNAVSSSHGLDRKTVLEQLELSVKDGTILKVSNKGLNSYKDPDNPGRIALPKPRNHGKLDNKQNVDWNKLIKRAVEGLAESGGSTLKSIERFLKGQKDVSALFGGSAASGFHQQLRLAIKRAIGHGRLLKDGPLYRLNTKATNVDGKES
For `GCGTAACC`, the E-score was 0.165.
For `GGACTAGA`, the E-score was -0.111.
With `AGACGCTC` the E-score was 0.112.
With `GGAACACA` the E-score was -0.0766.
`CATTTTCG` gave an E-score of 0.00999.
With `GCTCGAAC` the E-score was -0.014.
With `CCCAAGAG` the E-score was -0.295.
`AGTTCATC` has an E-score of -0.057.
For `ATTTCGAA`, the E-score was 0.0132.
The E-score of `ATCGAGGG` is reported as -0.109.
`CAGGCGAC` gave an E-score of 0.0388.
The E-score of `GAATAGAA` is reported as -0.134.
For `ATACCCAA`, the E-score was -0.0783.
`AGTGGGCG` has an E-score of -0.0186.
The E-score of `CGTGCGAG` is reported as 0.159.
`AAATCATA` has an E-score of 0.119.
For `GGTTATGA`, the E-score was -0.166.

Block 2
Target: Hepatocyte nuclear factor 3-alpha (Foxa1, Mus musculus, UniProt P35582, residues 1-468, full length assumed)
Chain of UniProt P35582 (whole entry, looked up): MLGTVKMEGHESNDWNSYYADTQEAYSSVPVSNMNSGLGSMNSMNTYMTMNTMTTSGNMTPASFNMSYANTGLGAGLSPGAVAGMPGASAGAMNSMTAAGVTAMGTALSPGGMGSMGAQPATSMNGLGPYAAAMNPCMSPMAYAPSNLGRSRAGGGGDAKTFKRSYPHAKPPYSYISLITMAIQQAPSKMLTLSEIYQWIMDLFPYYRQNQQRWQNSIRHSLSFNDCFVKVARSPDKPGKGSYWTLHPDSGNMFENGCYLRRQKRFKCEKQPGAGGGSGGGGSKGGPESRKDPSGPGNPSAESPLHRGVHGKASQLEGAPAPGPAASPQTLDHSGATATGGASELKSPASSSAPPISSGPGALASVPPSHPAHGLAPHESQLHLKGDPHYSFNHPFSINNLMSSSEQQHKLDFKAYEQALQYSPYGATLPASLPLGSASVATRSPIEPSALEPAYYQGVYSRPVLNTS
Technique: EMSA with sequencing
Molecule type: double-stranded DNA, one strand shown
Matrix: in vitro
Concentration: 10 and 20 nM
Notes: whole designed probe, mean of two concentrations, ends assumed
Baseline: negative control set to 0
Direction: higher = stronger binding
Under “normalised bound fraction”, `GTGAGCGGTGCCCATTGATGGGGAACATAGAAATTAAACAGATATAAAACTAGTAAACTCAGATAAAACTAGCACATATGTGAGAGCAAATTCAGCAAAACAAACCTCTGAATTTCAAAGTAAACATGTGCATGAAGATGTGGAAACAGGGTCAAACTCCACCAATGTTCTGTGAGTCACATATTTACTCTGAGATTCAGGGGTCAAGGGGGAAAGTTATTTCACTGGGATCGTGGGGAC` is recorded as 0.321 ratio.
`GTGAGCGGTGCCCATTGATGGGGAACAACATACATATGGTAAAAAATTGAAAAGAAACAAAAGATTATGTAACAGAAATGAATCTGCCACATACTCCAGATCCCACTGTCATTTCTCAGAGTAAACATGAATGGAAGTATACCATACATGTTGTTGTATACTGTGTTTGCTGAAAACAGAAAGTATCCTGGTGCTCTGCCTAATTACAGCTGCACAGTATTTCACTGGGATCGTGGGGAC` — result for “normalised bound fraction”: 0.236 ratio.
Under “normalised bound fraction”, `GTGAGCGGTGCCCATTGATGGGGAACATCTTCCCCCTCTTCCTTGCCCCACCAGCTCACCTTCCCGGGTTATTTGCAGATAGGAAAATAAATAAAGCCGGCATTCGTTAACCCTCTTCTGGCGCAAACTGCTGTTTGCTGCCGACTTTGTTTATACAGGTGGCGACGCCAGGCTCCGGGAGAGCAAAGCACCGTGTCAGGGCCATGATCCGGGGTGGCCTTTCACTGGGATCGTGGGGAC` is recorded as 0.42 ratio.
`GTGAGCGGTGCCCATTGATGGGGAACCTTCCACCCGCTCCTTCTCCCTGGATTAAAACACCACGAATTTTCTGCTCTTTGCTTTTCTTGAATAAGTTACCAAAAAAGAGCAGAACTAAGTCATCTCCAAACTGCCCTTTGGATAAACAAGATGGAGCAGATTAAATTACCTTGGAACATGATTTTGAATTCAAGCCATGAAGTACACTGGAGGAATGCCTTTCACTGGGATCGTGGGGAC`: “normalised bound fraction” 0.0494 ratio.
For `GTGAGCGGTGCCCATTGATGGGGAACTCCACAGCTACCCTTGGTTCCTTCAATCCCTCTTCTCCTAAAACAAACAAAAGCATGTTCCTTTGTCATTAAAAAAAAAAAAAAAAAGCAAAGTAAACATGCATCACACAGGCCAGCAGCCAGAAGTTTCCAATGCTCAGTGTCTGCTGCATTCTACGCCTCTATCACACAAAACTCACCACCCTCTAGTTCTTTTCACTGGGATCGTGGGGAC`, “normalised bound fraction” read 0.501 ratio.
`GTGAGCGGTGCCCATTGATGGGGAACCCCTGATTGCTATGTTCTAGAAAGTTTTAACCGAAAGTACCAGCTTTACATGTGTATGTGAATCAAACATGTAAACATCCACCTCTCTTTGTGTAAACAAGGAAAAATGGCAAAATATTTTCAGAGAATTTTTCTCTCCCATTTAAGTTTGAAGTTTCAACAAGCATATTATACTTTGAGAGAGAAAAGCAAATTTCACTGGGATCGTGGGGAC`: “normalised bound fraction” 0.419 ratio.

Block 3
Target: Interferon regulatory factor 5, full length, phosphomimetic (IRF5, Homo sapiens, UniProt Q13568-2, residues 1-514, S451D/S453D/S456D/S462D)
Technique: protein-binding microarray
Molecule type: double-stranded DNA, one strand shown
Matrix: in vitro
Concentration: 940 nM top
Notes: 60-bp whole probe
Together with: salmon DNA 0.4 mg/ml
Baseline: random background probes
Direction: higher = stronger binding
Shared flanks, not repeated: GCCTAGCAC … GTCTTGATTCGCTTGACGCTGCTG
For `ACTTTTTTCTGATTGAATCTGTGCTAG`, “fitted relative affinity” read 0.726 z-score.
`TTAGATCTGAGTATCGATTAGTGCTAG`: “fitted relative affinity” 4.06 z-score.
For `TCAACTTTGGCATGTCTTACTGTGCTA`, “fitted relative affinity” read -0.148 z-score.
`GCCCCACCCACTCTGGCCCCGTGCTAG`: “fitted relative affinity” 0.301 z-score.
`TCAACTTTCTTTAACTCACTGTGCTAG`: “fitted relative affinity” 1.33 z-score.
For `TTAGGTATCGAGACTGGGTTAGTGCTA`, “fitted relative affinity” read 4.93 z-score.
For `TTAGGTCTCCTTATCCTTTAGTGCTAG`, “fitted relative affinity” read 0.735 z-score.
For `TGCTGTGTACATCTCTCTTAGTGCTAG`, “fitted relative affinity” read 0.0393 z-score.
`TTAGAACTGAGTTTCAATTAGTGCTAG` — result for “fitted relative affinity”: 1.89 z-score.
`TGGGGGGATCAGGGAAACAGGTGCTAG`: “fitted relative affinity” 3.15 z-score.
For `AAGTTTATACCTTAGGTTTTGTGCTAG`, “fitted relative affinity” read -0.142 z-score.
For `TCAGCTATGTTGTCCAGGACTGTGCTA`, “fitted relative affinity” read -0.414 z-score.
Under “fitted relative affinity”, `GACGGTTTCGGTTTCTGGACGTGCTAG` is recorded as 13.3 z-score.
`TCAAGTTTTCTTTTCATACTGTGCTAG` — result for “fitted relative affinity”: 1.33 z-score.
`GACGGTATCGGGTATCGGGACGTGCTA` — result for “fitted relative affinity”: 5.61 z-score.
`TTAGGTATGGGGTTTCGGTTAGTGCTA` — result for “fitted relative affinity”: 5.94 z-score.
Under “fitted relative affinity”, `TCACCTTACTTTATGTAACTGTGCTAG` is recorded as 0.0825 z-score.
`GACCGTTTCGACACTGGGGACGTGCTA` — result for “fitted relative affinity”: 2.58 z-score.
For `CCAGTTTTGTGTGTGTGTTTGTGCTAG`, “fitted relative affinity” read 1.09 z-score.
`GACGATATCGGGTTTCGAGAAGTGCTA`: “fitted relative affinity” 1.88 z-score.
Under “fitted relative affinity”, `GTGTATATACTATATGCATGTGTGCTA` is recorded as 0.145 z-score.
For `TTAGGTATGGACACTGGGTTAGTGCTA`, “fitted relative affinity” read -0.481 z-score.
For `TCCATTTTGGTTTTCATTATGTGCTAG`, “fitted relative affinity” read 1.75 z-score.
Under “fitted relative affinity”, `TCATATATATAATATATAACTGTGCTA` is recorded as 0.362 z-score.
Under “fitted relative affinity”, `TTAGGTATCCGTCTCCTTTAGTGCTAG` is recorded as 0.946 z-score.

Block 4
Target: RNA binding protein fox-1 homolog 2, RRM domain, GST-SBP tag (RBFOX2, Homo sapiens, UniProt O43251-10, residues 100-194)
Technique: RNA Bind-n-Seq
Molecule type: RNA
Matrix: in vitro
Concentration: 365 nM
Notes: natural RNA segment, single round, ends assumed
Baseline: no-protein control
Direction: higher = stronger binding
Target sequence (chain): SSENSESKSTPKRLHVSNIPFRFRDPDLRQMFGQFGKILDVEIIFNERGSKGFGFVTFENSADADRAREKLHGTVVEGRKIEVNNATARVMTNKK
Under “RBNS enrichment (R)”, `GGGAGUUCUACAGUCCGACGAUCCUGGAACCCUCUGAGCAACUUGCUCUGACCUAUAAUGUCUUAGGUGCAACACGGACCCCACCAGAGCUCUUGGAUACCCCCCUAGAUCCAUGUGGCUUUAUGUGAGGGGAUGGAAUUCUCGGGUGCCAA` is recorded as 0.306.
Under “RBNS enrichment (R)”, `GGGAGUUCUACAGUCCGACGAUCGCUCUAAGAGCACUGUGCUUGGGAAAGUUGUGAUUAACAGCUUUUAAGAGGGCCCCUACCCCCAGUCCUUUGGGCAUUUUCUUUGAGCUGUUAGGUUUUGCUUUAUUUAAUGGAAUUCUCGGGUGCCAA` is recorded as 0.569.
Under “RBNS enrichment (R)”, `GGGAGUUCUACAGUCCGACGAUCCUUUUCUAAAAGUGGUAUCUGUUAUCCACAAUGUAUUUUAGUUAUUCCCACAAGUCAGGGGUCCAGAUAAAAUGAGGGUUAUCAGCUAACUGAUAUGCUAUCAUUGAGGUUGGAAUUCUCGGGUGCCAA` is recorded as 0.286.
`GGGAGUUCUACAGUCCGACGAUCUGCCAGAGGUGGUUUUUGAACAGGAAAAUCAUAAUUCAUAUCAUUGGAGAAGUAUUUAUUUUCAAAUAUCAAAUUGAAGAAAAACUCAAUCCUCCCAUGAAAAUCAGUUCUGGAAUUCUCGGGUGCCAA` — result for “RBNS enrichment (R)”: 0.491.
For `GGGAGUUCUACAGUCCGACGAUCCUUAGGAAGGAUGCCUUGUGCCUAUGGGCCCUUUGGUGACAUGUGGGGCUCUGGAUCCUUGGGUGUCCUCACUGUGGCCACUCUGCCUGCUGAGGACAGCCAGAAGCCCAUGGAAUUCUCGGGUGCCAA`, “RBNS enrichment (R)” read 0.525.
`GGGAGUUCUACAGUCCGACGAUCUUUUCUAAACUAUCAAAAACUCUAGCAGUUUGAAAAGCCUAAUAUUUAUUUGUAUGUCAGUAUUUUUCAUUUGAUUCCCUAUUAGAAUUAAUUUUAAAACUUGAAGACUUUGGAAUUCUCGGGUGCCAA`: “RBNS enrichment (R)” 0.655.
`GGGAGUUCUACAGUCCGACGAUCGAGCCCUCCUUGAACUGACCUUUGAUUGGUUUCUGCUUCAACUACCAAAAUGUUAUCUCCACUUCCCCCUCACCCGUAGAGGAUCCUGGCCACAGACAGUUUCAAGUAGUUGGAAUUCUCGGGUGCCAA`: “RBNS enrichment (R)” 0.528.
`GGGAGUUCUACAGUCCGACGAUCUCUUCCCAGCACUUCCCUGCCUCCCCCAGGCCUCAGGCCCAGCACCCAGUUCCUCCUCACAUGGCAGGUGAGCACAGACUUCUAGUUGGCAGGAGCUGAGGAGGGUGAACUGGAAUUCUCGGGUGCCAA`: “RBNS enrichment (R)” 0.83.
Under “RBNS enrichment (R)”, `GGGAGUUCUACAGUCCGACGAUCACUGCAUUCUUUGGACGUGUGAAUCCAUGUUCCUCUUCCUCUGGCCACUGAACACCUCCACCAGCUCUUUGGGAAUUGGAUGGAAAGGCGGCCCCUGGGGGCCAGGGGUGUGGAAUUCUCGGGUGCCAA` is recorded as 0.294.
`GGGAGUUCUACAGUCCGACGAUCGAUUAGAGCUGCCUUUCCCAGGGAAAAAGUGUCGUCUCCCCGACCCUCCCGUGGGCCCUGUGGUGUGAUGCUGUGUCUGUAUAUUCUAUACAAAGGUACUUGUCCUUUCCUGGAAUUCUCGGGUGCCAA` — result for “RBNS enrichment (R)”: 0.344.
Under “RBNS enrichment (R)”, `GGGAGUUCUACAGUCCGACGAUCUGGCUGGUGAGUGGCCUGUGUUAGUCUUGUGAGGACCUCGAGGAACCUAAAAGCUCAGAUGCACUUACAGUCUUGUCUGUGGCCUUUGUAUUGUUAUUGGCUGUAAACGUUGGAAUUCUCGGGUGCCAA` is recorded as 3.89.
`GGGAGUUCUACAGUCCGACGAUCCUAAGCCCCCACUACCCCAGAGCUAUCUUCUGUAGCCCAAAGGCAAGGCAGUGACCUCCUACUGACUUCCAACACAAUCCAGGGACAUUCUUCUCAACCCUUCAAACUUCUGGAAUUCUCGGGUGCCAA`: “RBNS enrichment (R)” 0.322.

Repeated from above (block 3):
`TTAGGTATGGGGTTTCGGTTAGTGCTA` — result for “fitted relative affinity”: 5.94 z-score.
For `TTAGGTATCGAGACTGGGTTAGTGCTA`, “fitted relative affinity” read 4.93 z-score.
`TTAGATCTGAGTATCGATTAGTGCTAG`: “fitted relative affinity” 4.06 z-score.
For `TCAGCTATGTTGTCCAGGACTGTGCTA`, “fitted relative affinity” read -0.414 z-score.
Under “fitted relative affinity”, `GTGTATATACTATATGCATGTGTGCTA` is recorded as 0.145 z-score.
